# Assay results pooled from the literature.
# Several values in a cell are separate wells, animals, samples, runs or records. ± gives the spread as reported.
# Phenylalanine--tRNA ligase alpha subunit: Phenylalanine--tRNA ligase alpha subunit (Plasmodium falciparum, UniProt Q8I246)
# ROP18: ROP18 (Toxoplasma gondii, UniProt Q2PAY2)
# UniProt Q2PAY2, sequence (whole entry, looked up): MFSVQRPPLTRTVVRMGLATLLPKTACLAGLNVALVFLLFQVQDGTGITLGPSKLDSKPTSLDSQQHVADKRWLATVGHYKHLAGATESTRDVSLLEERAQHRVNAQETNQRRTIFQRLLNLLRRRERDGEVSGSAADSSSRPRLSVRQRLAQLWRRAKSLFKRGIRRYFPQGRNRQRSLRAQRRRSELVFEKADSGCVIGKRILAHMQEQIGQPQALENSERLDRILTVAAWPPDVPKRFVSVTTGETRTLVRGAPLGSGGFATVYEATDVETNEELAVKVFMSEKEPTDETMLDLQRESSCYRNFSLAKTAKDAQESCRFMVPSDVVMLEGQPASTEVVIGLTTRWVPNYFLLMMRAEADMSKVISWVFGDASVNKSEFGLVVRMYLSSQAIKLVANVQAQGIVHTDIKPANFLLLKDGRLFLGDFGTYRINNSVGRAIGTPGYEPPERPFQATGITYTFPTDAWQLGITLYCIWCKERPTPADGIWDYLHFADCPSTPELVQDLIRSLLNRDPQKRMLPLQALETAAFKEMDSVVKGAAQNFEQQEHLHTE
# Putative glycogen synthase kinase D105E/Y102F: Putative glycogen synthase kinase (Leishmania major, UniProt Q4QE15, D105E/Y102F)
# UniProt P81908, sequence (whole entry, looked up): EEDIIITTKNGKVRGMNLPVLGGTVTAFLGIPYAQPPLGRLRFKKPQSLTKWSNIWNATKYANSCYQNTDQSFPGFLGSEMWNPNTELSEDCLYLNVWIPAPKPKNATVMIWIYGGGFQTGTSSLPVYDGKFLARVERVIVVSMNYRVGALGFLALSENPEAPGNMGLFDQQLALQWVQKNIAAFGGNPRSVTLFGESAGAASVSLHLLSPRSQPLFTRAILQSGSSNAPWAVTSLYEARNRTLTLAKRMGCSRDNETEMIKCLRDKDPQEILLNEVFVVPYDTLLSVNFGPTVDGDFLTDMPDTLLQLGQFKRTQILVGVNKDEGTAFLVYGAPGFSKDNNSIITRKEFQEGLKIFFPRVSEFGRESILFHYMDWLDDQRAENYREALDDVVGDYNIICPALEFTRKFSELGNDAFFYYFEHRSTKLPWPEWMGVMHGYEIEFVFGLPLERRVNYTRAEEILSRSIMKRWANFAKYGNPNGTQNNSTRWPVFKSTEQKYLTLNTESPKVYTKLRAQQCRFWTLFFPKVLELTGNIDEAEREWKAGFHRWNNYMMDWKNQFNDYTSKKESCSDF
# UniProt P00830, sequence (whole entry, looked up): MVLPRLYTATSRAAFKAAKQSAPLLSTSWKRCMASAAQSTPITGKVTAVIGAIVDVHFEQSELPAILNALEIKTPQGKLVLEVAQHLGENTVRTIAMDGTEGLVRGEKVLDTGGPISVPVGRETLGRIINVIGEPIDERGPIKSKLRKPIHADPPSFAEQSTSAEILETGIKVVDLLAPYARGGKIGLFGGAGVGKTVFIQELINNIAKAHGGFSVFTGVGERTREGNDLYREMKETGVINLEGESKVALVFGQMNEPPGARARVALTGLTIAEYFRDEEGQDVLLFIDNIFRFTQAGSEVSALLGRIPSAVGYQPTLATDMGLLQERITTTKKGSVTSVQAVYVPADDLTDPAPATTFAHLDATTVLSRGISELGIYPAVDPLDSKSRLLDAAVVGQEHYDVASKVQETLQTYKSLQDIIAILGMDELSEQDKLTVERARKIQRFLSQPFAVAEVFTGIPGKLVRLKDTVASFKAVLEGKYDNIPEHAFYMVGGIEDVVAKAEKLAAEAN
# UniProt P33527, sequence (whole entry, looked up): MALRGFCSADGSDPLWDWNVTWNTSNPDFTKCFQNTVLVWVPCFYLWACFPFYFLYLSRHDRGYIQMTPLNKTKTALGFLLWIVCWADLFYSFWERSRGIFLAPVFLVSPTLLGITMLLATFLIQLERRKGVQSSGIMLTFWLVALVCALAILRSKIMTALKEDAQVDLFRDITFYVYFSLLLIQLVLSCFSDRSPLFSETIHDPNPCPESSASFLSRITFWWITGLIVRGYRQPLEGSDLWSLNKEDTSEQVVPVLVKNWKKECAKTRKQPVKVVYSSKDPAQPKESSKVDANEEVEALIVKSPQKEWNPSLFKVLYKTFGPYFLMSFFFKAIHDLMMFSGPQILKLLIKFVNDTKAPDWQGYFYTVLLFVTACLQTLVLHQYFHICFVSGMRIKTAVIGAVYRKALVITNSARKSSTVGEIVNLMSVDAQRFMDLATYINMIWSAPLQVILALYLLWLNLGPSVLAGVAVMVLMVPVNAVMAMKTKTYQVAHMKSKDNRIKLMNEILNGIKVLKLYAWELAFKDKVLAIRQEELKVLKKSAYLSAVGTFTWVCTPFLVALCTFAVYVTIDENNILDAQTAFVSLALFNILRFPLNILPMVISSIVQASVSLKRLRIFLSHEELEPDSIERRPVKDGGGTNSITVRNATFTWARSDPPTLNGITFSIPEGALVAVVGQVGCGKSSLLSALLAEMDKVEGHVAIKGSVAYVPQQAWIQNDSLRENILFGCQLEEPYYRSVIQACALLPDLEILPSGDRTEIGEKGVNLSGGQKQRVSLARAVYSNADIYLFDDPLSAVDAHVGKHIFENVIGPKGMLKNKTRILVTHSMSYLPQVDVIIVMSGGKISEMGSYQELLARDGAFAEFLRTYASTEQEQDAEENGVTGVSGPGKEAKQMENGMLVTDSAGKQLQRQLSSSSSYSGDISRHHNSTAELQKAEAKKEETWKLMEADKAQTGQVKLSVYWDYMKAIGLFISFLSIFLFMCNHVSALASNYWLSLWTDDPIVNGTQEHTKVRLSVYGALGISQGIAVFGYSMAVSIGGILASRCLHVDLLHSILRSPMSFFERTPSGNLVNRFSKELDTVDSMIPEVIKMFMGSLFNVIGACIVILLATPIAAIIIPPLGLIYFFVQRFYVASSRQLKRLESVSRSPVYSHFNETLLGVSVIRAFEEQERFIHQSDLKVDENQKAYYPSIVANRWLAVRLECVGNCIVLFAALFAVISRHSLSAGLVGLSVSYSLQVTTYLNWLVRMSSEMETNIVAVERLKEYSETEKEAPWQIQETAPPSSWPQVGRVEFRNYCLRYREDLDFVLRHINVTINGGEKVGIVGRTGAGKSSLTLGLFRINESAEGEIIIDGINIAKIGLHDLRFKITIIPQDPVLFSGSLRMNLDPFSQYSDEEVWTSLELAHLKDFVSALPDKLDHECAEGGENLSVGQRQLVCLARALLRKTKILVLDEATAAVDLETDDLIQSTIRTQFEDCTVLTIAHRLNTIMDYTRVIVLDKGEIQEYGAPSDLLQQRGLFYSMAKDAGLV
# UniProt Q16678, sequence (whole entry, looked up): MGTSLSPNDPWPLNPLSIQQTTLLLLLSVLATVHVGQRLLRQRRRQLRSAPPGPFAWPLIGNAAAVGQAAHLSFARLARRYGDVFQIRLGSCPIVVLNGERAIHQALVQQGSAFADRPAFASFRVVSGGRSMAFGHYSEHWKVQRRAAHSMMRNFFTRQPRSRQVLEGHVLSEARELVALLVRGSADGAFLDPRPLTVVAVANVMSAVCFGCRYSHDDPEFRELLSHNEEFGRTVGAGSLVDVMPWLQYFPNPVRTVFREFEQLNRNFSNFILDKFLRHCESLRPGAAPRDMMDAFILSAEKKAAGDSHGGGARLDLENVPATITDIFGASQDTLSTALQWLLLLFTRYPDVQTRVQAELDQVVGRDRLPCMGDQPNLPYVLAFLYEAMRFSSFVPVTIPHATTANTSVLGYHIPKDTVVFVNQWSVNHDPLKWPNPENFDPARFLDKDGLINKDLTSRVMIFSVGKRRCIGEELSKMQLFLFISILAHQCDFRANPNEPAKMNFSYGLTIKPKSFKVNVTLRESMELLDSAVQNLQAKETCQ
# UniProt Q99ZW2, sequence (whole entry, looked up): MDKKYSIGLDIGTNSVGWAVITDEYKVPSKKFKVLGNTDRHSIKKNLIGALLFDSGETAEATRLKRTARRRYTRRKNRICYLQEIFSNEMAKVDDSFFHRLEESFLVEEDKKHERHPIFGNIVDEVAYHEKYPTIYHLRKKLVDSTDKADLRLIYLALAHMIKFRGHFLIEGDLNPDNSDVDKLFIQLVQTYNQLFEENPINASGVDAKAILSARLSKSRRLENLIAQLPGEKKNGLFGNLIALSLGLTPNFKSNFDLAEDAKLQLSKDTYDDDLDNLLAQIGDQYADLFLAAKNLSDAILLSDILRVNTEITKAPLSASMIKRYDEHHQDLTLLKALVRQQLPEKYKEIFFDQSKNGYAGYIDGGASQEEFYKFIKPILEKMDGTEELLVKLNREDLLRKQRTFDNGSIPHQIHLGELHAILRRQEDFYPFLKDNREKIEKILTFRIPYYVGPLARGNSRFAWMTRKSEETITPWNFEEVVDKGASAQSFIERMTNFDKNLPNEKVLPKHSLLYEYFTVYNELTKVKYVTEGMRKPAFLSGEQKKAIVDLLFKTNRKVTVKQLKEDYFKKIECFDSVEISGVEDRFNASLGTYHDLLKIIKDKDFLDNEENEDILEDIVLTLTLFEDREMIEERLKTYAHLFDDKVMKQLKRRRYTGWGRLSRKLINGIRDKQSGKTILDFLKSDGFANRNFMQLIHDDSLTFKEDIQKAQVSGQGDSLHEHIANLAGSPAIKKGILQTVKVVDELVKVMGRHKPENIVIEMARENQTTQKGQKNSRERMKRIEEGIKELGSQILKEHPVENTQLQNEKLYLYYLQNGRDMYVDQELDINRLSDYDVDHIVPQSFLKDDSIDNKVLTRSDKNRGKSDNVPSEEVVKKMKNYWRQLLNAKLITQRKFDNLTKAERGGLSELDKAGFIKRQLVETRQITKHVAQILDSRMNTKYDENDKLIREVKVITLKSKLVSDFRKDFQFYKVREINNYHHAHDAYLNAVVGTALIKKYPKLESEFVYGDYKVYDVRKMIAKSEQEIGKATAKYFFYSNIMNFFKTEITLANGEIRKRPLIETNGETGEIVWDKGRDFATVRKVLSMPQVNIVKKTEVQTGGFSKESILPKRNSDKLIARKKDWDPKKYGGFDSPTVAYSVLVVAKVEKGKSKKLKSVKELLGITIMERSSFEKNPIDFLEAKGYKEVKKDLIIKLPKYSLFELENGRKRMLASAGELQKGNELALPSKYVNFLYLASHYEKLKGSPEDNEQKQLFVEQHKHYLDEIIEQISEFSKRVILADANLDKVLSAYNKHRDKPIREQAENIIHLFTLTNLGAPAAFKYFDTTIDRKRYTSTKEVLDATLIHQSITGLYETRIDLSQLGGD
SMILES,target,assay,system,setting,IC50
Cc1cc(NC(=O)Nc2ccc(N(C)C)cc2)c2cc(F)cc(F)c2n1,"HCRTR1 (Homo sapiens, UniProt O43613)","reporter gene, antagonist, luciferase",,,180 nM
Cl.Cl.Cl.Cl.Cl.Cl.N.N.N.N.N.N.N.N.N.N.N.N.N.N.[O-2].[O-2].[Ru+3].[Ru+3].[Ru+4],"Trpv1 (Rattus norvegicus, UniProt O35433)","transporter uptake, inhibitor, radiometric",,,1000 nM
CC(C)(C)c1ccc(/C=C/C(=O)Nc2ccc3c(c2)OCCO3)cc1,ERRα (human),"reporter gene, antagonist, luciferase reporter qHTS",,,2660 nM
S=C(N/N=C1\CCCc2c1[nH]c1ccc(C3CCCCC3)cc21)Nc1ccccc1,"Lysine--tRNA ligase (lysS, Pseudomonas aeruginosa, UniProt Q9HXU0)","aminoacylation, scintillation proximity",,,30000 nM
O=[N+]([O-])c1ccc(CSc2ncnc3c2ncn3[C@@H]2O[C@H](CO)[C@@H](O)[C@H]2O)cc1,"SLC29A4 (Homo sapiens, UniProt Q7RTT9, I89M)","MPP+ uptake, inhibitor",MDCK expressing PMAT I89M,"1 min, 37 °C, added: [3H]MPP+ 1 µM",11500 ± 5100 nM
Cc1ccncc1OC(=O)NCCCCCn1ccc2ccc(F)cc21,"Cholinesterase (BCHE, Equus caballus, UniProt P81908)","enzyme activity, inhibitor, HPLC",,,360 nM
CC[C@H]1C(=O)N[C@@]2([C@@H](O)[C@@H]3C=CCCC3)C(=O)O[C@@]12C,"Proteasome subunit beta 2, alpha/beta1 complex (prcB2, Salinispora tropica, UniProt A4X744)",,,,19200 ± 3500 nM
CCCCCCCCCCCCC/C=C/[C@@H](O)[C@@H](N)COP(=O)(O)OCC[N+](C)(C)C,"RYR1 (Oryctolagus cuniculus, UniProt P11716)","channel open probability, inhibitor, planar lipid bilayer",,"added: free Ca2+ 22 µM, no calmodulin",1300 ± 300 nM
COc1ccc(NC(=O)N2CCCCN3[C@H](CO)[C@H](c4ccc(C#Cc5ccccc5)cc4)[C@@H]3C2)cc1,Phenylalanine--tRNA ligase alpha subunit,"aminoacylation activity, inhibitor",,,33 nM
CN1C(=O)[C@]23SS[C@@]1(C)C(=O)N2[C@H]1Nc2ccccc2[C@@]1([C@@]12c4ccccc4N[C@@H]1N1C(=O)[C@@]4(C)SS[C@]1(C(=O)N4C)[C@H]2O)[C@@H]3O,"SUV39H2 (Homo sapiens, UniProt Q9H5I1)","enzyme activity, inhibitor, radiometric",,,481 nM
NS(=O)(=O)c1ccc(NN=C2C(=O)Nc3ccc(C(=O)NCc4ccncc4)cc32)cc1,ROP18,"enzyme activity, inhibitor",,,8130 nM
CC(C)c1ccc(NC(=O)Oc2ccc3c(c2)[C@]2(C)CCN[C@@H]2N3)cc1,"Cholinesterase (BCHE, Homo sapiens, UniProt P06276)","enzyme activity, inhibitor, immobilized enzyme reactor, HPLC-UV",immobilized recombinant human enzyme,"inhibition plateau, L-tartrate salt",2.66 ± 0.09 nM
CC1=C(C(=O)NC(=O)c2cnccn2)C(c2cccc(Cl)c2)NC(=S)N1 (centres unmarked),"Cholinesterase (BCHE, Equus caballus, UniProt P81908)",,,,4310 ± 10 nM
C=CCCC[C@](C)(NC(=O)[C@H](CC(C)C)NC(=O)[C@H](CCCCN)NC(=O)[C@H](CC(C)C)NC(=O)[C@](C)(CCCC=C)NC(=O)[C@H](Cc1ccccc1)NC(=O)[C@H](Cc1ccc(O)cc1)NC(=O)[C@H](C)NC(=O)[C@@H](N)[C@@H](C)O)C(=O)NCC(=O)N[C@@H](CCCNC(=N)N)C(=O)N[C@@H](Cc1c[nH]c2ccccc12)C(N)=O,"PC4 and SFRS1-interacting protein, with HIV integrase (Homo sapiens, UniProt O75475)","LEDGF/p75-integrase interaction, inhibitor",,,15000 nM
O=c1[nH]c2ccccc2c(=O)o1,"X-ray repair cross-complementing protein 6, with Ku80 (Homo sapiens, UniProt P12956)","Ku70-Ku80 heterodimerization, co-immunoprecipitation",,"1 h preincubation, 23 °C",3200 nM
CC(C)(COP(=O)(O)OP(=O)(O)OC[C@H]1O[C@@H](n2cnc3c(N)ncnc32)[C@H](O)[C@@H]1OP(=O)(O)O)[C@@H](O)C(=O)NCCC(=O)NCCS,"sfp (Bacillus subtilis, UniProt P39135)","phosphopantetheinylation, inhibitor, fluorescence polarization",,"45 min, pH 7.6, 10% DMSO, added: VibB 10 µM and rhodamine-CoA 5 µM",8000 ± 1000 nM
CC1=C(C(=O)NC(=O)c2cnccn2)C(c2ccncc2)NC(=O)N1 (centres unmarked),"Cholinesterase (BCHE, Equus caballus, UniProt P81908)",,,,3920 ± 10 nM
O=c1cc(-c2ccc3c(c2)OCO3)[nH]c2ccccc12,"ACHE (Homo sapiens, UniProt P22303)","enzyme activity, inhibitor",,,197000 ± 18000 nM
O=C(O)c1ccccc1-c1c2ccc(=O)c([As]3SCCS3)c-2oc2c([As]3SCCS3)c(O)ccc12,"PTPN11 (Homo sapiens, UniProt Q06124)","enzyme activity, inhibitor",crude Escherichia coli lysate,"120 min, 37 °C, added: pNPP",6000 nM
COC(=O)/C=C/c1cc(O)ccc1O,"EGFR (Homo sapiens, UniProt P00533)","kinase activity, ADP luminescence",,added: 200 µM ATP,> 10000 nM
CCN1C[C@H](C)n2c(c(O)c3c(=O)n(Cc4ccc(F)c(Cl)c4)nc(C(=O)NC)c32)C1=O,"Gag-Pol polyprotein, integrase (gag-pol, Human immunodeficiency virus 1, UniProt P12497)","concerted integration, inhibitor, measured: CHS products",,"2 h, 37 °C",365 ± 45 nM
COc1ccc(NC(=O)N2CCCCN3[C@H](CO)[C@H](c4ccc(C#Cc5ccccc5C#N)cc4)[C@@H]3C2)cc1,Phenylalanine--tRNA ligase alpha subunit,"aminoacylation activity, inhibitor",,,221 nM
O=C(O)c1cc2ccccc2c(Cc2c(O)c(C(=O)O)cc3ccccc23)c1O,"CRISPR-associated endonuclease Cas9/Csn1 (cas9, Streptococcus pyogenes serotype M1, UniProt Q99ZW2)","ssDNA target strand cleavage, inhibitor",,"added: FAM ssDNA 87 nt, no PAM",> 200000 nM
COc1ccc(CCN2CCN(c3ccccc3OC)CC2)cc1OC,"Cytochrome P450 1A2 (CYP1A2, Homo sapiens, UniProt P05177)","enzyme activity, inhibitor","human, liver microsomes",,> 100000 nM
CCC(=O)Nc1cc(Nc2cc(NC3CC3)n3ncc(C#N)c3n2)ccc1N1CCCC(N)C1 (centres unmarked),"CSNK2A2 (Homo sapiens, UniProt P19784)","target engagement in cells, BRET",,,15.8 nM
O=C1Nc2ccccc2/C1=C/c1cnc[nH]1,"Putative glycogen synthase kinase (Leishmania major, UniProt Q4QE15, D105E)","enzyme activity, inhibitor",,"90 min, 30 °C, added: ATP 2 µM",18000 nM
O=C(OC(C(F)(F)F)C(F)(F)F)N1CCC(C(O)(c2ccc3c(c2)OCO3)c2ccc3c(c2)OCO3)CC1,"Mgll (Mus musculus, UniProt O35678)",competitive ABPP,mouse brain membrane proteome,added: FP-Rh probe,15 nM
CCCC(O)C(C)C(=O)NC/C=C\CC(C)C(O)C(C)C1C/C=C\CC(C)C(O)Cc2cc(OC)cc(O)c2C(=O)O1 (centres unmarked),"ATP2/ATP1 (Saccharomyces cerevisiae, UniProt P00830+P07251)","ATPase activity, inhibitor",,detergent-solubilised enzyme,~75 nM
O=C(O[C@@H]1Cc2c(O)cc(O)cc2O[C@@H]1c1ccc(O)c(O)c1)c1cc(O)c(O)c(O)c1,"mRNA triphosphatase Cet1 (Trypanosoma brucei brucei, UniProt Q582T2)","enzyme activity, Transcreener ADP fluorescence polarization",,"3 h, added: 50 µM ATP",640 nM
Cn1cc(C2=C(c3cn(CCCN)c4ccccc34)C(=O)NC2=O)c2ccccc21,Putative glycogen synthase kinase D105E/Y102F,"enzyme activity, inhibitor",,"90 min, 30 °C, added: ATP 2 µM",890 nM
Nc1ccc2cc3ccccc3cc2c1,"KCNH2 (Homo sapiens, UniProt Q12809)","thallium influx, inhibitor, primary qHTS",hERG-transduced cells,two runs,6500 ± 2100 nM
C[C@@H]1C[C@H]2[C@@H]3CCC4=CC(=O)C=C[C@]4(C)[C@@]3(Cl)[C@@H](O)C[C@]2(C)[C@@]1(OC(=O)c1ccco1)C(=O)CCl,"ABCC1 (Homo sapiens, UniProt P33527)","efflux, inhibitor",SupT1-Vin overexpressing ABCC1,added: SYTO 13 100 nM,1000 ± 800 nM
NS(=O)(=O)c1ccc(N/C=C2\C(=O)Nc3ccc4ncsc4c32)cc1,ROP18,"enzyme activity, inhibitor",,,2930 nM
CC[C@H](C)[C@H](NC(=O)[C@H](CC(N)=O)NC(=O)[C@H](Cc1c[nH]cn1)NC(=O)[C@@H](NC(=O)[C@H](CC(C)C)NC(=O)[C@H](CCCNC(=N)N)NC(=O)[C@H](CCSC)NC(=O)[C@H](C)N)[C@@H](C)O)C(=O)N[C@@H](Cc1ccccc1)C(=O)N[C@@H](Cc1ccccc1)C(=O)N[C@@H](CC(N)=O)C(=O)N[C@@H](Cc1ccccc1)C(=O)N[C@@H](Cc1ccccc1)C(=O)N[C@@H](CCCCN)C(=O)N[C@@H](CCCNC(=N)N)C(=O)N[C@@H](CCCNC(=N)N)C(=O)O,"histidine kinase ComD (Streptococcus pneumoniae serotype 4, UniProt A0A0H2US84)","reporter gene, antagonist","Streptococcus pneumoniae, TIGR4 comX::lacZ","30 min, 37 °C, added: CSP2 250 nM",> 10000 nM
COc1ccc(-c2cc3nccn3c(Nc3ncccc3C(N)=O)n2)cc1OC,ERRα (human),"reporter gene, antagonist, luciferase reporter qHTS",,,2980 nM
C#Cc1ccc2ccc3cccc4ccc1c2c34,"Cytochrome P450 1B1 (CYP1B1, Homo sapiens, UniProt Q16678)","enzyme activity, inhibitor",,"5 s, pH 7.4",< 50 nM
O=C([O-])[C@H]([O-])[C@@H]([O-])C(=O)[O-].O=C([O-])[C@H]([O-])[C@@H]([O-])C(=O)[O-].[K+].[K+].[Sb+3].[Sb+3],"Thioredoxin glutathione reductase (Schistosoma mansoni, UniProt Q962Y6)","enzyme activity, inhibitor, absorbance",,with preincubation,20 nM
O=C1Nc2ccc3ncsc3c2/C1=C/Nc1ccc(S(=O)(=O)Nc2ccccn2)cc1,"GSK3 (Trypanosoma brucei, UniProt Q388M1)","enzyme activity, inhibitor",,added: GSM peptide and ATP,8 ± 2 nM
CCC(=O)CCCCC[C@@H]1NC(=O)[C@H]2CCCCN2C(=O)[C@H]([C@@H](C)CC)NC(=O)[C@H](Cc2cn(OC)c3ccccc23)NC1=O,HDAC (Lucilia cuprina egg nuclear extract),"enzyme activity, inhibitor, fluorometric",,,720 nM
Nc1ncnc2c1ncn2Cc1nc2ccccc2c2cc[nH]c12,human PDE4 from U-937 cells,"enzyme activity, inhibitor",,"20 min, pH 7.5, 25 °C, added: [3H]cAMP 1.10 µM",6100 nM
COc1ccc(CNC(=O)Nc2ncc([N+](=O)[O-])s2)cc1,Putative glycogen synthase kinase D105E/Y102F,"enzyme activity, inhibitor",,"90 min, 30 °C, added: ATP 2 µM",13300 nM
CC(C)(O/N=C(\C(=O)N[C@@H]1C(=O)N2C(C(=O)[O-])=C(C[n+]3ccccc3)CS[C@H]12)c1csc(N)n1)C(=O)O,"dacC (Pseudomonas aeruginosa, UniProt G3XD74)","binding, Bocillin FL competition",Pseudomonas aeruginosa 1771 membranes,"PBP 5, added: Bocillin FL 100 µM",> 45700 nM
C[C@@H]1CC[C@]2(C(=O)O)CC[C@]3(C)C(=CC[C@@H]4[C@@]5(C)C[C@@H](O)[C@H](O)[C@@](C)(CO)[C@@H]5CC[C@]43C)[C@@H]2[C@]1(C)O,acetylcholinesterase,"inhibitor, Ellman",,"20 min pre-incubation, 30 min, pH 7.4, added: acetylthiocholine",29.2 µg/mL
O=C(NCCCCCCn1ccc2ccc(F)cc21)Oc1ccccc1,"Cholinesterase (BCHE, Equus caballus, UniProt P81908)","enzyme activity, inhibitor, HPLC",,,3300 nM and ~4000 nM
